Assay results collected from several papers.
Every numbered part comes from another study and shows a few of its results, in no order.

Set 1
Target: RNA binding protein fox-1 homolog 2, RRM domain, GST-SBP tag (RBFOX2, Homo sapiens, UniProt O43251-10, residues 100-194)
Technique: RNA Bind-n-Seq
Molecule type: RNA
Matrix: in vitro
Tested at: 365 nM
Notes: natural RNA segment, single round, ends assumed
Relative to: no-protein control
Direction: higher = stronger binding
Shared flanks, not repeated: GGGAGUUCUACAGUCCGACGAUC … UGGAAUUCUCGGGUGCCAA
Construct (chain): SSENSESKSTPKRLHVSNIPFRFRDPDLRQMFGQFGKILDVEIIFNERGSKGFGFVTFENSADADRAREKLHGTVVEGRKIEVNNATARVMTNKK
Sequence	RBNS enrichment (R)
UUAUUUAUUCUUGUUUAUUCAAAUGACUGCAAUAACAAUGAUUCAUUCAUUAAUGUUAAGGCUAAUACAUUUAAGAUCUUGUUUAAACAAUGUUUCUUCUGCAACUGGCU	0.418
AACCACCAUGCCCAGCCGAAAAGCUUUUGAGGGGCUGACUUCAAUCCAUGUAGGAAAGUAAAAUGGAAGGAAAUUGGGUGCAUUUCUAGGACUUUUCUAACAUAUGUCUA	0.745
AUUCUGAUUGCUCUAUGCUGCUUUCCUCCUCUUAAAGUUUCAUGAGCUCUUGGGUUAAAUGGUUUGUUAUGAGCAGGCUUUCCAUUACUCAUUGUUCUGCGAUUUAUUUU	0.419
AUAGAAAAUGACUUUAGAGAUGAGUGGUUUUGUGUAUGUGUCUGAUGAUAUUCAGUCUGAUGUUCCGCAAUUUUAAAAGUUAUAAUAAAAUACCAUUUUUUUAAUCUGGA	5.44
AAUGGUGUCUUUUGAAAUGCACUUGUUUUUAAUUUUAAUGAAGCCUAAUGUAUUAGUUUCCUUAUACGAGUUAUGCUUUUAGUACUGUAUCUCUCUCUGCUUAACUAAAG	0.491
GCAGAGGUGGGACACUGAGGUGCUUUGCUUAAAUUUCAAAGCUUGCAUAUAUUCAUGUAAAUAUAUGAAUAUAUGACGUCUAUAAUAGACGUCAGCAAUUCAUUCGUCUA	0.498
UUCUCAAUCCCUGGUAAUCACCUCCCUUUUACAUGGACAGACUUGAGGUGAGGCCUAAGUAUGAGGCACCUGAAGAUAAAACCAAUGGGCAGAACCAAUGGCCCCAGUCG	0.603
UUGCCAAAAUACCUUCUGAACUAAGUUGCGUUGUGCUGAGAACACCUAAGCACUAAACUCUCUUGAGAGACUUCUGUUGCUAAGAAGACCGCAGCUUCUGGAGCCAGGGG	0.411
UUUAUUUAAUGUAAAUAGUUUUUGUUUCCAAUGAGGCAGUUUCUGGUACUCCUAUGCAAUAUUACUCAGCUUUUUUUAUUGUAAAAAGAAAAAUCAACUCACUGUUCAGU	1.3
UCAAAUUUAGGGGCAAAGUGGAGACUGGAAGAAUUCUCCUUUCAGAAGAACCACGAGGCUCUGGCUGAGCCUCCCUCUGGAGUGCUAGUGUACCUGUGGGUCUGUCCUCU	0.232
UGUGUUCUGGCAAAGUGAUCUCAACAUGUAAGUAGUUGCAGUAAAACACAGGGGCAAAGGAAGACAGGCCUGAUGUGCCCACUCAUCUAUGGACUCAGAGCUGUGUGCUU	0.463
CUUUCACCCAGCACUGUGGGGGCCUUCAGACUCUGGGGCAGCAGACAUGCUGCUUCCCAUCAGCCAGAGGGGGUCAGGGCUGCCCUGUUGCCAAACAACUCCCUGAGGCC	0.261

Set 2
Target: Fragile X messenger ribonucleoprotein 1, C-terminal low-complexity region (Fmr1, Mus musculus, UniProt P35922)
Technique: RNA Bind-n-Seq
Molecule type: RNA
Matrix: in vitro
Tested at: 200 nM
Notes: whole 134-nt RNA, ends assumed
Added: 150 mM LiCl
Relative to: input library
Direction: higher = stronger binding
Library: 7-deaza-guanosine replaces G
Shared flanks, not repeated: GGGAGUUCUACAGUCCGACGAUC … UGGAAUUCUCGGGUGUCAAGG
Sequence	log2 enrichment
ACCAUGCAGGUGGGAAACUUUGGGAAGUGGGGCAAGGGGGGGAUAGGGAGGGGGGUAACACUUUGGGAACAGGUGGUCCCAGGUCGUUUC	1.52
GGCCCGACCUGAUCGACUUUGAUAAGCUGAAGGACUCCAAUGCCCGGCACAACCUGGAGCACGCAUUCAAUGUGGCUGAGCGCCAGCUGG	-0.819
CAAGUCCUGUGCUACACAUCGUAUGUACCGAAUCGGGAAAGGAAAGGGAAAGGGGAAAGUAUUAUGUUACGCCGUUCGGAUCUGCACUUC	-0.298
CACAGACAACACGCACCCACACAGACACAGAGGGAAGGGGUUGGGAUGGGGCCAGGGUGCACAGCAGGGCGGGGUAGGACCCCAGCCCCU	0.9
CACAGACAACUCGCACCCACACAGACACAGAGGGAAGGGGUUGGGAUGGGGACAGGGUGCACAGCAGGGCGGGGUAGGACCCCAGCCCCU	0.0105
CCUGUGCUACACAUCGUAUGUACCGAAUCGGGGCCCCCCGGGCCCCCCGGGCCCCCCGGGGAAAGUAUUAUGUUACGCCGUUCGGAUCUG	-1.75
UAAGAAGGAAAUUGAGAGGAGAAAAACUGGAAAAGAAAUGUUGGAUUAUAAAAGAAAACAAGAAGAAGAAUUAACAAAAAGAAUGCUGGA	-0.873
UCAAGUCCUGUGCUACACAUCGUAUGUACCGAAUCGGAAAAAAAGGAGGAAAGGAAAGUAUUAUGUUACGCCGUUCGGAUCUGCACUUCC	-0.658
CCUGUGCUACACAUCGUAUGUACCGAAUCGGGGUUUUUUUGGGGAAAGGGGUUUUUGGGGAAAGUAUUAUGUUACGCCGUUCGGAUCUGC	-1.08
CUCAAGUCCUGUGCUACACAUCGUAUGUACCGAAUCGGUUUGGAAAGGUUUGGAAAGUAUUAUGUUACGCCGUUCGGAUCUGCACUUCCA	-0.777
CCUCAAGUCCUGUGCUACACAUCGUAUGUACCGAAUCGGUGGUGGAAAAAGGAAAGUAUUAUGUUACGCCGUUCGGAUCUGCACUUCCAG	0.375

Set 3
Target: Sal-like protein 4, full length isoform A (SALL4, Homo sapiens, UniProt Q9UJQ4, residues 1-1053)
UniProt Q9UJQ4, sequence (whole entry, looked up): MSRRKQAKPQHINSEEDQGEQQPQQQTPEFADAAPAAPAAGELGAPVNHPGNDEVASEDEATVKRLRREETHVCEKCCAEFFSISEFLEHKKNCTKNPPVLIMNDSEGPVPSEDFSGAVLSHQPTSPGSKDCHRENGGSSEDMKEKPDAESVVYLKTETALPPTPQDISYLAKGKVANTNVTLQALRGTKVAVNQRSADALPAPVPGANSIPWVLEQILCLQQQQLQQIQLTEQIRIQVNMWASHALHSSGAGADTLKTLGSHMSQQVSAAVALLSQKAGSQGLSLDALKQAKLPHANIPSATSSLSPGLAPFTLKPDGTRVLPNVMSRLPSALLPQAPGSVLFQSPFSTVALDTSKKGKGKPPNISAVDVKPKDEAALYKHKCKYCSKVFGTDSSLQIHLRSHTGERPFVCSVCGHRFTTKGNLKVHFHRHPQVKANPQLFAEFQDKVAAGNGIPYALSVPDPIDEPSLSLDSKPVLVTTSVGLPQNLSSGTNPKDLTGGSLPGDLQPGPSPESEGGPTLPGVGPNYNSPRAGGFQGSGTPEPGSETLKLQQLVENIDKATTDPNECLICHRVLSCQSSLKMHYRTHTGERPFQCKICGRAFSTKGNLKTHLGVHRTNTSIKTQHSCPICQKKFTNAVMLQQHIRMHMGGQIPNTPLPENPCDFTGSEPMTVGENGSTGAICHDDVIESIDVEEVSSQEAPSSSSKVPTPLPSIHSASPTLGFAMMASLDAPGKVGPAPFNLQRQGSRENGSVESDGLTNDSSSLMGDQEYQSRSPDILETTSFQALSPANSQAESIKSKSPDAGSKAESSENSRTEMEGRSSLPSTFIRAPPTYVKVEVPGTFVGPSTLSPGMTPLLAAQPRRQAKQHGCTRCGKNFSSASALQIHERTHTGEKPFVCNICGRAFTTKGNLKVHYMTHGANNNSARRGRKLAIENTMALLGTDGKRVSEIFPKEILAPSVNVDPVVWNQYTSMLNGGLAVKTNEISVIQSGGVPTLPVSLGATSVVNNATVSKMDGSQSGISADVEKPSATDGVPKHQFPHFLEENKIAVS
Technique: universal PBM
Molecule type: double-stranded DNA, one strand shown
Matrix: in vitro
Tested at: 600 nM
Notes: 8-mer, flanks averaged, mean of replicates
Direction: higher = stronger binding
Sequence	E-score
GTGGCACA	-0.204
CTTTTATA	0.276
CTCGTCCC	-0.184
GCCTGAGA	-0.15
CATGGAGC	-0.184
GGGTGCTA	-0.136
ACTGCGAA	-0.0209
TCTCGTAA	0.1
CACCTAGC	-0.229
ATGGAATA	0.286
GGTGATCA	-0.0332
GTGAAAAA	0.26
CCCGATAC	-0.14
AGGTGTAG	-0.12
TACAAACA	0.24
ATTTAACA	0.218
AGGAAGAA	0.0374
CTACCATA	0.131
CACTTAAA	0.215
CATTCTCC	0.0124
CAAAGCGA	-0.029
CACTTGGA	0.0113
GCTGGGCC	-0.426
GTCGAAGA	-0.0306
GTGATCGA	0.0697

Set 4
Target: Histone acetyltransferase KAT6A, winged helix 2, GST fusion (KAT6A, Homo sapiens, UniProt Q92794, residues 85-181)
Technique: protein binding microarray
Molecule type: double-stranded DNA, one strand shown
Matrix: in vitro
Tested at: not given
Notes: 8-mer, flanks averaged, mean of 2 arrays, mostly near background
Relative to: not given
Direction: higher = stronger binding
Construct (chain): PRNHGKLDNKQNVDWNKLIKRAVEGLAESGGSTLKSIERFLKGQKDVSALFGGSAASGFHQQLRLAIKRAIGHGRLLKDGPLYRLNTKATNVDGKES
Sequence	E-score
CTCGTCAA	-0.0591
GTGATAGA	-0.0311
CTATCCGC	0.208
CAGTAACA	-0.0746
ATGTGCAA	-0.0823
GATAGTTA	-0.13
TCGTCAGA	0.00879
GACTTCAA	-0.228
AATGTCTC	-0.173
AATGAATT	0.103
TTCGCCAA	0.105
ATGGATAG	-0.0661
TAAATTTA	0.152
GCGCGTCC	-0.0259
CCGAAACC	0.00274
GTACGAAA	0.0646
CCATCTGA	0.101
CAACAAAC	0.0162
AATCTCAT	-0.0191
GAAAAACA	-0.118
AGGAGTGC	-0.0151
ACACTAGG	-0.0887
AGCACCGA	0.174
GCGGCAAA	0.117
AGAAACAG	0.0769

Set 5
Target: RING finger protein unkempt homolog, zinc fingers 1-6, GST-SBP tag (UNK, Homo sapiens, UniProt Q9C0B0, residues 30-357)
UniProt Q9C0B0, sequence (30-357, looked up): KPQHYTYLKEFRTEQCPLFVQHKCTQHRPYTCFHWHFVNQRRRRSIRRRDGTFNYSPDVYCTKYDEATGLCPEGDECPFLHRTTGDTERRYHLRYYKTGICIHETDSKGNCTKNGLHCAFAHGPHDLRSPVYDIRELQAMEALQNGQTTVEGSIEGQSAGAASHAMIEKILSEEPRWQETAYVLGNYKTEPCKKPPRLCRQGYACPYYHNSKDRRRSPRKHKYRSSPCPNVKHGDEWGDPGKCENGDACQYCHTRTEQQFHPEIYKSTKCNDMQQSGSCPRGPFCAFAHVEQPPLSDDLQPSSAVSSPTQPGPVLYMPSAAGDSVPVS
Technique: RNA Bind-n-Seq
Molecule type: RNA
Matrix: in vitro
Tested at: not given
Notes: RNA with constant flanks, human-mouse chimeric sites, ends assumed
Relative to: input RNA pool
Direction: higher = stronger binding
Shared flanks, not repeated: GGGAGUUCUACAGUCCGACGAUC … CAACAGAGGAUUGAGCAUCA
Sequence	bound/input enrichment [ratio]
UCUUUAAAUGCACUACAACCUUUUCUGACAGUGCUUUCCCUCCCAUAGAUCCACGUUCAAGCUCAAAGAGCAAAGGCUUUGCACGGAUCUGAUGAUGCUGAUGAAGAAAGAUUUCUGAGA	0.236
UAAGUCCUGUGCCAGCAAUUUAUCCCAAAAGUUUUAAAUUCUGGACCAAUUGUGUUUGUUUCCUGAUUAUUGUAUCCAAUACUUUGCCUAGUAUGUAACUCACUCUUACUGAUAAUAAAA	0.911
UUUGUAUUUAUGCUAAGCACGCGUGCUGGUGGUCUUGGCAUCAAUCUUGCAACUGCUGAUGUAGUCAUUUUAUAUGACUCAGAUUGGAAUCCGCAAGUUGAUCUUCAGGCUAUGGACCGU	0.157
AACGUGGAGUUGAGUUCCUUGGCCCGGCUUCCCAGCUUGAAUAAACUUCGAAAAUUGGAACUUAGUGAUAAUAUAAUUUCUGGAGGCUUGGAAGUCCUGGCAGAGAAAUGUCCAAAUCUU	2.93
GUACUGCAGCAGCAGGGAAAACUGCAGGAAGCUCUGAUGCAUUAUAAGGAGGCUAUUCGAAUUAGUCCUACAUUUGCUGAUGCCUACUCUAAUAUGGGAAACACUCUAAAGGAGAUGCAG	0.543
GUACUGCAGCAGCAGGGAAAACUGCAGGAAGCUCUGAUGCAUUAUAAGGAGGCUAUUCGAAUCAGUCCUACAUUUGCUGAUGCCUACUCUAAUAUGGGAAACACUCUAAAGGAGAUGCAG	0.232
AUCAAAUACUUUGGGGACAUCAUUAGUGUGGGACAGAGACUGUUGCAAGGAGCUCGGAUCUUAGGGAUUCCAGUUAUCAUAACGGAACAAUACCCUAAAGGUCUUGGCAGCACCGUUCAA	0.169
UAAGUUAAGCUUUUAAUCUUUGUAAAUUCUUAACAUUUUUAUAUUGCACAUUUUAUGUUGUUUGGGUAAUUUGGUUCAUUAAGUACAUAGCUAAGGUAAUGAACAUCUUUUUCAGUAAUU	0.55
GAGCCAAGCCGGCAGUUUGUAAAGGACUCCAUUCGGCUGGUUAAAAGAUGCACCAAACCCGACAGAAAAGAAUUCCAGAAGAUUGCCAUGGCUACAGCUAUAGGAUUUGCUAUCAUGGGA	0.162
AUGGAGAAGGAUUCUCUGCCUCGCUUUGUGCGCUCUGAAUUUUAUAAGGAGCUAAUCAAGUAGUCAUCUGGUCAGGCUAUGAAAUCAUGCCCUGUGAGUUGAGUUACAUCCUUUGUAGCA	0.244
GAUAAGAAAAGCUUGUUGGAGACCCGCUUGCAUGUCACUGGUAGAGAACUGAGGUCCCAAAUAGCUGAAACUUUCGGAUUUCAAGAAAAUUACAUCAAGAUCGUAAUAAAUAAGAAACAG	0.388
